Assay results of several laboratories.
Numbered parts are unrelated; each lists some results of a single study. Positions count from the first letter of the parent shown.

Series 1
Target: CCND2, cyclin fold, Cln2 fusion (human)
Method: yeast growth competition, sequencing
Matrix: yeast
Notes: strong parent motif
Relative to: not given
Reading: higher = stronger binding
Parent: viral docking peptide; YKVKRRLVFGADD; partner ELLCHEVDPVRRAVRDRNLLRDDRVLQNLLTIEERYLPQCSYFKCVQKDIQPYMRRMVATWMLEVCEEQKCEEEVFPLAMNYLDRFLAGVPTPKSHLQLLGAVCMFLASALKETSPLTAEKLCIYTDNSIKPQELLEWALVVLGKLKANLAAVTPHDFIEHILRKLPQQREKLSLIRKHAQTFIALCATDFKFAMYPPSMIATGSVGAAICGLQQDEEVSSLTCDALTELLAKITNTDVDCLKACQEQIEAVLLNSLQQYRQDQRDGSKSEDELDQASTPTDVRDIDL
Change	normalised enrichment score
G10E	2.21
R5K F9L	0.242
K2P	2.04
V3Y	0.81
K2H	1.35
D12Y	0.888
G10N	1.68
R6L	0.506
K4R	1.82
K4L	-0.0695
L7M	0.704
V8R	0.301
V3H	0.297
R6Q	0.35
L7S	0.0355
R5S	0.0442
R6C	0.592
Y1A	0.486
K4V	-0.00363
D12T	0.967
A11S	1.67
V3Q	0.126
V8P	-0.0521
R5N	-0.398
R5G	-0.178

Series 2
Molecule: HNRNPC (Homo sapiens, UniProt P07910)
Method: cross-linking MS
Notes: hits only
partner	interaction screen
HNRNPA3 (Homo sapiens, UniProt P51991)	cross-linked
DDX50 (Homo sapiens, UniProt Q9BQ39)	cross-linked
RBMX (Homo sapiens, UniProt P38159)	cross-linked
DDX5 (Homo sapiens, UniProt P17844)	cross-linked
DDX17 (Homo sapiens, UniProt Q92841)	cross-linked

Series 3
Target: HLA class I histocompatibility antigen, A alpha chain, allele A*25:01 (Homo sapiens, UniProt P04439)
Read-out: peptide-MHC binding
Molecule type: peptide
Concentration: concentration not given
Molecule	binding
LPLKMLNIPSINVH	inactive
TVIRFWHAM	inactive
WQDGGWQSV	inactive
KSAFYQSYL	inactive
TSASFTDLY	inactive
ILNRETLLDFV	inactive
CTWPEASRY	inactive
FLQQRKPPL	inactive
NFFHASLAY	inactive
FEFILRYGD	inactive
DWMERIEDF	inactive
AVDWYQQRI	inactive
CASSSDWFY	inactive
RVVRPWGSY	inactive
TTRAVNMEV	inactive
SQVRVPTVF	inactive
MQDVFTFYV	inactive
QAHMGIAGL	inactive
GFAIPIILK	inactive
LEYFQFVKKLL	inactive
LTDEQKNAV	inactive
YLKKLDDFY	inactive
HTAEIQQFF	active
GMHDGTVGK	inactive
MHYGYNRAN	inactive

Series 4
Target: UBE2D2 UBC core domain (UniProt P62837)
UniProt P62837, sequence (whole entry, looked up): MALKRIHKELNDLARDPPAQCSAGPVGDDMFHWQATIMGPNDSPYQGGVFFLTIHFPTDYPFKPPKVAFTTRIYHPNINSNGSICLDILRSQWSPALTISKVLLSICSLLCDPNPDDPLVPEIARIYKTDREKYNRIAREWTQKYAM
Method: yeast two-hybrid
Matrix: yeast
Notes: mostly zero background
Relative to: not given
Reading: higher = stronger interaction
B1: CNOT4 RING domain (UniProt O95628); chain MSRSPDAKEDPVECPLCMEPLEIDDINFFPCTCGYQICRFCWHRIRTDENGLCPACRKPYPED
B2: RNF186 RING domain (UniProt Q9NXI6); chain HSGSTECDLECLVCREPYSCPRLPKLLACQHAFCAICLKLLLCVQDNTWSITCPLCRKVTAVPGGLI
B3: RNF182 RING domain (UniProt Q8N6D2); chain AESQASDELECKICYNRYNLKQRKPKVLECCHRVCAKCLYKIIDFGDSPQGVIVCPFCRFETCLPDDEV
B4: HLTF RING domain (UniProt Q14527); chain LILSSGSDEECAICLDSLTVPVITHCAHVFCKPCICQVIQNEQPHAKCPLCRNDIHEDNLLE
B5: BFAR RING domain (UniProt Q9NZS9); chain GPQISVSEFSCHCCYDILVNPTTLNCGHSFCRHCLALWWASSKKTECPECREKWEGFPKVS
B6: RNF6 RING domain (UniProt Q9Y252); chain NSIDSELGKICSVCISDYVTGNKLRQLPCMHEFHIHCIDRWLSENCTCPICRQPVLGSNIAN
B7: ZMYND11 RING domain (UniProt Q15326); chain DEIDWETENHDWYCFECHLPGEVLICDLCFRVYHSKCLSDEFRLRDSSSPWQCPVCRSIKKKNTNKQEM
B8: TRIM11 RING domain (UniProt Q96F44); chain LSTNLQEEATCAICLDYFTDPVMTDCGHNFCRECIRRCWGQPEGPYACPECRELSPQRNLRP
B9: ARIH2 RING domain (UniProt O95376); chain HVPTSHPPHHCAVCMQFVRKENLLSLACQHQFCRSCWEQHCSVLVKDGVGVGVSCMAQDCPLRTPEDFVF
B10: NFX1 RING domain (UniProt Q12986); chain IEQLTTEKYECMVCCELVRVTAPVWSCQSCYHVFHLNCIKKWARSPASQADGQSGWRCPACQNVSAHVPNTY
Molecule	lacZ reporter activity
B1 (CNOT4 RING domain)	15300
EIKEYKARLTCPCCNTRKKDAVLTKCFHVFCFECVRGRYEARQRKCPKCNAAFGAHDFHR (RNF40 RING domain (UniProt O75150))	0
B2 (RNF186 RING domain)	12500
B3 (RNF182 RING domain)	0
B4 (HLTF RING domain)	0
DDVLTKDAGECVICLEELLQGDTIARLPCLCIYHKSCIDSWFEVNRSCPEHPAD (ZNRF1 RING domain (UniProt Q8ND25))	13600
B5 (BFAR RING domain)	0
B6 (RNF6 RING domain)	0
B7 (ZMYND11 RING domain)	0
B8 (TRIM11 RING domain)	0
B9 (ARIH2 RING domain)	0
LVKDFNPYITCYICKGYLIKPTTVTECLHTFCKTCIVQHFEDSNDCPRCGNQVHETNPLE (PCGF5 RING domain (UniProt Q86SE9))	0
B10 (NFX1 RING domain)	0

Some of these lines once more (series 2):
partner	interaction screen
DDX50 (Homo sapiens, UniProt Q9BQ39)	cross-linked
DDX5 (Homo sapiens, UniProt P17844)	cross-linked
DDX17 (Homo sapiens, UniProt Q92841)	cross-linked
RBMX (Homo sapiens, UniProt P38159)	cross-linked
HNRNPA3 (Homo sapiens, UniProt P51991)	cross-linked
